Assay results of several laboratories.
Lines come from different studies, so protocols differ.
Target: Amine oxidase [flavin-containing] A (MAOA, Homo sapiens, UniProt P21397)
Chain of UniProt P21397 (whole entry, looked up): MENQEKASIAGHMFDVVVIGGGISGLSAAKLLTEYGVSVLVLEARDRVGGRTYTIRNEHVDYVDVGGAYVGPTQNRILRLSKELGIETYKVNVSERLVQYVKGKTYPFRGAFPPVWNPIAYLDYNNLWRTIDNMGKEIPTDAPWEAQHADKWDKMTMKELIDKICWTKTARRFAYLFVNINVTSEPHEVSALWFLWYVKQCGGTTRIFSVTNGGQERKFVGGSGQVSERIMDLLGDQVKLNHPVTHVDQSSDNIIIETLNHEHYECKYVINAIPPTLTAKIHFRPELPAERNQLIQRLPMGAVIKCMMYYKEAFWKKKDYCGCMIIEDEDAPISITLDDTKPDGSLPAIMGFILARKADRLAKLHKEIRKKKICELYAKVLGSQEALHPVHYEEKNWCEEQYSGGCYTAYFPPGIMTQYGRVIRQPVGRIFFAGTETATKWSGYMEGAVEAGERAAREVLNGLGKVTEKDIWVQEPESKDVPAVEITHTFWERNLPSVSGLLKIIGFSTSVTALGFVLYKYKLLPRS
Read-out: enzyme activity
Action: inhibitor
Concentration: 10 µM

CCc1ccc(/C=C/C(=O)c2ccc(N3CCNCC3)cc2)cc1 — remaining activity: 93.1%
O=C(/C=C/c1cccc(Br)c1)c1cc2ccccc2oc1=O — remaining activity: 86.2%
O=C1c2ccccc2N(Cc2cccc(Cl)c2)C12CCCC2 — remaining activity: 45.2%
S=C(N/N=C/c1ccccc1OCc1ccccc1)Nc1ccccc1 — remaining activity (absorbance): 98.3%
O=C1c2cc(F)ccc2N(Cc2ccccc2)C12CCCC2 — remaining activity: 81.3%
O=C(/C=C/c1ccc(F)cc1)c1cc2ccccc2oc1=O — remaining activity: 88.1%
O=C(/C=C/c1ccccc1)c1ccc(N2CCNCC2)cc1 — remaining activity: 96.6%
CNC(=S)N/N=C/c1ccccc1OCc1ccccc1 — remaining activity (absorbance): 64.9%
COc1ccc(/C=C/C(=O)c2ccc(N3CCNCC3)cc2)cc1 — remaining activity: 65.7%
S=C(N/N=C/c1cccc(OCc2ccccc2)c1)Nc1ccccc1 — remaining activity (absorbance): 2.13%
O=C(/C=C/c1cccc(F)c1)c1cc2ccccc2oc1=O — remaining activity: 98.8%
O=C(/C=C/c1ccc(F)cc1)c1ccc(N2CCNCC2)cc1 — remaining activity: 94.5%
NC(=O)N/N=C/c1ccc(OCc2cccc(F)c2)cc1 — remaining activity (absorbance): 45.8%
O=C1c2ccccc2N(Cc2ccc(F)cc2)C12CCCC2 — remaining activity: 73.8%
O=C(/C=C/c1ccc(Cl)cc1)c1cc2ccccc2oc1=O — remaining activity: 86.8%
O=C1c2cc(Cl)ccc2NC12CCCC2 — remaining activity: 79.1%
NC(=S)N/N=C/c1ccc(OCc2ccccc2)cc1 — remaining activity (absorbance): 124%
O=C(/C=C/c1ccc([N+](=O)[O-])cc1)c1ccc(N2CCNCC2)cc1 — remaining activity: 98.1%
O=C1c2ccccc2N(Cc2cccc(Br)c2)C12CCCC2 — remaining activity: 24.1%
O=C(/C=C/c1cccc(Cl)c1)c1cc2ccccc2oc1=O — remaining activity: 95.5%
CNC(=S)N/N=C/c1cccc(OCc2ccccc2)c1 — remaining activity (absorbance): 36.6%

For quick reference, copied from above:
O=C(/C=C/c1cccc(Cl)c1)c1cc2ccccc2oc1=O — remaining activity: 95.5%
CNC(=S)N/N=C/c1cccc(OCc2ccccc2)c1 — remaining activity (absorbance): 36.6%
